Assay results from different studies.
A part holds a random share of what one study measured. Substitutions count along the parent as printed.

Series 1
Target: Prothrombin, mature alpha-thrombin (F2, Homo sapiens, UniProt P00734)
Method: aptamer microarray, sandwich
Form: DNA with 2'F-ANA
Sample: in vitro
Concentration: 200 nM
Setting: whole 15-mer aptamer, many near background
Together with: Cy3 exosite-II aptamer, 400 nM
Reading: higher = stronger binding
Quantity: mean fluorescence intensity
Oligonucleotide: GGTTGGTGTGGTTGG
2'F-ANA at 2 9 10: 231 a.u.
2'F-ANA at 2 3 4 7 9 11 12 14 15: 277 a.u.
2'F-ANA at 1 2 4 7 8 10 11 13 15: 51.1 a.u.
2'F-ANA at 4 5 6 8 10 11 12 15: 50.5 a.u.
2'F-ANA at 3 6 7 11 13 14: 603 a.u.

Series 2
Target: ABI1, truncated, D143A, DHFR fusion (Arabidopsis thaliana)
Method: DHFR PCA, deep sequencing
Sample: yeast
Setting: methotrexate growth selection, single substitutions
Together with: (+)-ABA 1.4 µM
Relative to: wild-type fitted maximum
Reading: higher = stronger binding
Quantity: relative binding score
Starting sequence: PYL1, truncated, DHFR fusion (Arabidopsis thaliana); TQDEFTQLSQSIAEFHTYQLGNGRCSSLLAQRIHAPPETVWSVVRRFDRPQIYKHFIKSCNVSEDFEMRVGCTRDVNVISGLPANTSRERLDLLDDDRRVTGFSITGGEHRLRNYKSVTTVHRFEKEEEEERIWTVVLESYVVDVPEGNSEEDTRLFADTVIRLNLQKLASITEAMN
Y53A: -7.51%
G71V: -5.65%
R46G: -7.56%

Series 3
Target: Sal-like protein 4, full length isoform A (SALL4, Homo sapiens, UniProt Q9UJQ4, residues 1-1053)
Chain of UniProt Q9UJQ4 (whole entry, looked up): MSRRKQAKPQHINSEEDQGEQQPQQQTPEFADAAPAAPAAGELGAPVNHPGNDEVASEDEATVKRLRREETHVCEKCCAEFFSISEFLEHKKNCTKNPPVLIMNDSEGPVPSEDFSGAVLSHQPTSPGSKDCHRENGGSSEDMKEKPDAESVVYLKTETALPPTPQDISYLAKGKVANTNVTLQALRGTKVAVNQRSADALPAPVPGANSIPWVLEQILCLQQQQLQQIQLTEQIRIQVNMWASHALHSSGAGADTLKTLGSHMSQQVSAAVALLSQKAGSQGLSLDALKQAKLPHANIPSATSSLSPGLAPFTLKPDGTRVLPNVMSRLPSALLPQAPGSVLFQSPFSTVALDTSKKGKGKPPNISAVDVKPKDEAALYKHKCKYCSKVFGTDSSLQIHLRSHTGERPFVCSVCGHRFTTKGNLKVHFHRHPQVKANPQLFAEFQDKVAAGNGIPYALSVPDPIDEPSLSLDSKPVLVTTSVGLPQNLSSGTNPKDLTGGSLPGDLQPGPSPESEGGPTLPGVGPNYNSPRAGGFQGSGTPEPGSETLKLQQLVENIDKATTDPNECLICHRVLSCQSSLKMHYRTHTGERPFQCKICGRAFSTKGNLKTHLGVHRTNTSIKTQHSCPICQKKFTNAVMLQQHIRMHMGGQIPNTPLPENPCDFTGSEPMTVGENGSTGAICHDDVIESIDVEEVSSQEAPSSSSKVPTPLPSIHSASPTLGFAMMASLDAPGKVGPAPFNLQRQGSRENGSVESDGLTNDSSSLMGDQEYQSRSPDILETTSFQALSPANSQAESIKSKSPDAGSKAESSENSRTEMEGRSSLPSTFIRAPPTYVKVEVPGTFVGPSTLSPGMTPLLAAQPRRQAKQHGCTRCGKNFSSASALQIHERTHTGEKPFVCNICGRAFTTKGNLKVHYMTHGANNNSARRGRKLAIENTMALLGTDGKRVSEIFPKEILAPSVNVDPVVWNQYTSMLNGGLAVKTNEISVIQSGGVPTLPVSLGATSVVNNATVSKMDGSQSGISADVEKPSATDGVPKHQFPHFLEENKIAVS
Method: universal PBM
Form: double-stranded DNA, one strand shown
Sample: in vitro
Concentration: 600 nM
Setting: 8-mer, flanks averaged, mean of replicates
Reading: higher = stronger binding
Quantity: E-score
GTCTGGAA: 0.0351
AGTCACCC: -0.191
CGACGTAA: 0.00352
GAGTTGCA: -0.154
CATCCGTA: -0.000595
TGGATCCA: 0.124
CAGGCTGC: -0.186
ACGACCCC: -0.321

Further values, each from its own experiment
PhoQ, residues 284 288 289 292 302 303 TNSAEL  fold induction (PhoP, residues 12 14 15 18 19 LYFRQ (Escherichia coli, UniProt P23836); Sort-seq, measured: YFP reporter; E. coli; PhoQ-PhoP variant library, together with: 10 µM Mg2+; relative to: high Mg2+ state, higher = stronger signaling): 15

Some of these lines once more (further values, each from its own experiment):
PhoQ, residues 284 288 289 292 302 303 TNSAEL  fold induction (PhoP, residues 12 14 15 18 19 LYFRQ (Escherichia coli, UniProt P23836); Sort-seq, measured: YFP reporter; E. coli; PhoQ-PhoP variant library, together with: 10 µM Mg2+; relative to: high Mg2+ state, higher = stronger signaling): 15
